Assay results gathered from unrelated publications.
A part holds a random share of what one study measured. Substitutions count along the parent as printed.

Series 1
Target: UBE2G2 UBC core domain (UniProt P60604)
Sequence of UniProt P60604 (whole entry, looked up): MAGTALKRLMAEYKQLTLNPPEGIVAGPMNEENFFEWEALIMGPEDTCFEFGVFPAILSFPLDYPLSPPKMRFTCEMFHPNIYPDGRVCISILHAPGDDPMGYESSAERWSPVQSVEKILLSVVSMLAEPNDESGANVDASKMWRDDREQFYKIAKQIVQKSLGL
Technique: yeast two-hybrid
Medium: yeast
Notes: mostly zero background
Relative to: not given
Reading: higher = stronger interaction
Measurement: lacZ reporter activity
B1: RNF166 RING domain (UniProt Q96A37); chain GDSGLEAQYTCPICLEVYHRPVAIGSCGHTFCGECLQPCLQVPSPLCPLCRLPFDPKKVDK
B2: RNF122 RING domain (UniProt Q9H9V4); chain AKKLQLYGQTCAVCLEDFKGKDELGVLPCQHAFHRKCLVKWLEVRCVCPMCNKPIASPSEAT
B3: TRIM22 RING domain (UniProt Q8IYM9); chain VKVDIEKEVTCPICLELLTEPLSLDCGHSFCQACITAKIKESVIISRGESSCPVCQTRFQPGNLRP
B4: RNF183 RING domain (UniProt Q96D59); chain EQQGRELEAECPVCWNPFNNTFHTPKMLDCCHSFCVECLAHLSLVTPARRRLLCPLCRQPTVLASGQP
B5: DEF8 RING domain (UniProt Q6ZN54); chain AGRLGCSLTEIHTLFAKHIKLDCERCQAKGFVCELCREGDVLFPFDSHTSVCADCSAVFHRDCYYDNSTTCPKCARLSLRK
B6: RNF2 RING domain (UniProt Q99496); chain SPRSLHSELMCPICLDMLKNTMTTKECLHRFCADCIITALRSGNKECPTCRKKLVSKRSLR
B7: RNF31 RING domain (UniProt Q96EP0); chain AFLRRLLAQECAVCGWALPHNRMQALTSCECTICPDCFRQHFTIALKEKHITDMVCPACGRPDLTDDTQLL
Molecule = B1 (RNF166 RING domain); result = 15700
Molecule = YCEMGSTFQLCKICAENDKDVKIEPCGHLMCTSCLTAWQESDGQGCPFCRCEIKGTEPII (CBLB RING domain (UniProt Q13191)); result = 0
Molecule = LGTKLEAKYLCSACRNVLRRPFQAQCGHRYCSFCLASILSSGPQNCAACVHEGIYEEGIS (TRAF2 RING domain (UniProt Q12933)); result = 0
Molecule = B2 (RNF122 RING domain); result = 0
Molecule = AEADPLGRFTCPVCLEVYEKPVQVPCGHVFCSACLQECLKPKKPVCGVCRSALAPGVRAV (RNF114 RING domain (UniProt Q9Y508)); result = 0
Molecule = B3 (TRIM22 RING domain); result = 0
Molecule = B4 (RNF183 RING domain); result = 0
Molecule = B5 (DEF8 RING domain); result = 0
Molecule = B6 (RNF2 RING domain); result = 0
Molecule = B7 (RNF31 RING domain); result = 0

Series 2
Target: ABI1, truncated, D143A, DHFR fusion (Arabidopsis thaliana)
Technique: DHFR PCA, deep sequencing
Medium: yeast
Notes: methotrexate growth selection, single substitutions
With: (+)-ABA 2500 µM
Relative to: wild-type fitted maximum
Reading: higher = stronger binding
Measurement: relative binding score
Parent: PYL1, truncated, DHFR fusion (Arabidopsis thaliana); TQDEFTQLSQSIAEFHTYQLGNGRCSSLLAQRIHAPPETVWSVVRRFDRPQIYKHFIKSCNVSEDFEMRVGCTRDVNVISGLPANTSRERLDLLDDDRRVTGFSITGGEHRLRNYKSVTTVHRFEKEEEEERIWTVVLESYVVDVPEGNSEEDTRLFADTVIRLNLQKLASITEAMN; partner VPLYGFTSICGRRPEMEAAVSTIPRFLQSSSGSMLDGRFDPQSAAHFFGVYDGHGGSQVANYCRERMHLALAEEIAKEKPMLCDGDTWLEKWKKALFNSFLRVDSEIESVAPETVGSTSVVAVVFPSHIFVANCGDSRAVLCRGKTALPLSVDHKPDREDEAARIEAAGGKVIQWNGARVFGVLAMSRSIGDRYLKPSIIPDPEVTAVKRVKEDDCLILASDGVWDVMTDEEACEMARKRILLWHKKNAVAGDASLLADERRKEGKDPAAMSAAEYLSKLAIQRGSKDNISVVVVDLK
Change = H16V; result = 37.4%
Change = D48P; result = 74.3%
Change = I162T; result = 70.9%
Change = E38W; result = 96.5%
Change = E139K; result = 75.9%
Change = S150N; result = 95.4%
Change = S59E; result = 101%
Change = S104P; result = 2.4%
Change = N85T; result = 99.6%
Change = G21M; result = 97%
Change = F103D; result = 0.398%
Change = T135R; result = -7.91%
Change = R123A; result = 107%
Change = L156R; result = 90.4%
Change = T73D; result = 92.8%
Change = S140G; result = 69.5%
Change = F15R; result = 89.2%

Series 3
Target: CCNB3, cyclin fold, Cln2 fusion (human)
Technique: yeast growth competition, sequencing
Medium: yeast
Notes: weak parent motif
Relative to: not given
Reading: higher = stronger binding
Measurement: normalised enrichment score
Parent: EXO1 docking peptide (human); KPECGRVQRAIFQ
Change = KPACGRVQRAIFQ [E3A]; result = 0.236
Change = KPECGRVQAAIFQ [R9A]; result = -0.152
Change = KAECGRVQRAIFQ [P2A]; result = 0.179
Change = KPECARVQRAIFQ [G5A]; result = -0.156
Change = KPECGRVARAIFQ [Q8A]; result = 0.173
Change = KPECGAVQRAIFQ [R6A]; result = -0.0469

Series 4
Target: Fragile X messenger ribonucleoprotein 1, C-terminal low-complexity region (Fmr1, Mus musculus, UniProt P35922)
Technique: RNA Bind-n-Seq
Form: RNA
Medium: in vitro
Concentration: 200 nM
Notes: whole 134-nt RNA, ends assumed
With: 150 mM KCl
Relative to: input library
Reading: higher = stronger binding
Measurement: log2 enrichment
All sequences stand within: GGGAGUUCUACAGUCCGACGAUC … UGGAAUUCUCGGGUGUCAAGG
Sequence = ACCAUGCAGGUGGGCGUCUUUGGGAAGUGGGGCAAGGGGGGGAUAGGGAGGGGGGUAACACUUUGGGAACAGGUGGUCCCAGGUCGUUUC; result = 0.607
Sequence = CUCAAGUCCUGUGCUACACAUCGUAUGUACCGAAUCGGUUGGUUGGGGUUGGGAAAGUAUUAUGUUACGCCGUUCGGAUCUGCACUUCCA; result = 0.181
Sequence = UGGGAGGUGGAUUUUGUUUAUUUUUUUAGCUCAUUUCCAGGGGUGGGAAUUUUUUUUUAAUAUGUGUCAUGAAUAAAAUUGUUUUUGAAA; result = 0.14
Sequence = AAGUCCUGUGCUACACAUCGUAUGUACCGAAUCGGAAAAAGGUUUUUUUGGAAAGGAAAGUAUUAUGUUACGCCGUUCGGAUCUGCACUU; result = -1.43
Sequence = UAACUUUAGAGGAGGAUCUGAUGAAUAUGGCAGUGGACGUGGAUUUGGGGAUGGCUAUAAUGGGUAUGGAGGAGGACCUGGAGGUGGCAA; result = 0.307
Sequence = ACCAUGCAGGUGGGCAUCUUUGGGAAGUGGGGCAAGGGGGGGAUAGGCAGGGGGGUAACACUUUGGGAACAGGUGGUCCCAGGUCGUUUC; result = 0.571
Sequence = AAGUCCUGUGCUACACAUCGUAUGUACCGAAUCGGUUUGGAAAAAGGAAAAAAAGGAAAGUAUUAUGUUACGCCGUUCGGAUCUGCACUU; result = -0.786
Sequence = CUGUGCUACACAUCGUAUGUACCGAAUCGGGUUUUUUUGGGAAAAAAAGGGUUUUUUUGGGAAAGUAUUAUGUUACGCCGUUCGGAUCUG; result = -1.56
Sequence = CAAGUCCUGUGCUACACAUCGUAUGUACCGAAUCGGGCCCGGGGCCCGGGCCCGGAAAGUAUUAUGUUACGCCGUUCGGAUCUGCACUUC; result = -0.526

Some of these lines once more (series 1):
Molecule = YCEMGSTFQLCKICAENDKDVKIEPCGHLMCTSCLTAWQESDGQGCPFCRCEIKGTEPII (CBLB RING domain (UniProt Q13191)); result = 0
Molecule = LGTKLEAKYLCSACRNVLRRPFQAQCGHRYCSFCLASILSSGPQNCAACVHEGIYEEGIS (TRAF2 RING domain (UniProt Q12933)); result = 0
Molecule = B2 (RNF122 RING domain); result = 0
Molecule = AEADPLGRFTCPVCLEVYEKPVQVPCGHVFCSACLQECLKPKKPVCGVCRSALAPGVRAV (RNF114 RING domain (UniProt Q9Y508)); result = 0
Molecule = B3 (TRIM22 RING domain); result = 0
